Measurements collected from several papers.
Lines come from different studies, so protocols differ. Values joined by “and” are separate records of one study, mostly repeats; a detail may differ. ± marks the error that the study gave.
TDP1: Tyrosyl-DNA phosphodiesterase 1 (TDP1, Homo sapiens, UniProt Q9NUW8)
UniProt Q9NUW8, sequence (whole entry, looked up): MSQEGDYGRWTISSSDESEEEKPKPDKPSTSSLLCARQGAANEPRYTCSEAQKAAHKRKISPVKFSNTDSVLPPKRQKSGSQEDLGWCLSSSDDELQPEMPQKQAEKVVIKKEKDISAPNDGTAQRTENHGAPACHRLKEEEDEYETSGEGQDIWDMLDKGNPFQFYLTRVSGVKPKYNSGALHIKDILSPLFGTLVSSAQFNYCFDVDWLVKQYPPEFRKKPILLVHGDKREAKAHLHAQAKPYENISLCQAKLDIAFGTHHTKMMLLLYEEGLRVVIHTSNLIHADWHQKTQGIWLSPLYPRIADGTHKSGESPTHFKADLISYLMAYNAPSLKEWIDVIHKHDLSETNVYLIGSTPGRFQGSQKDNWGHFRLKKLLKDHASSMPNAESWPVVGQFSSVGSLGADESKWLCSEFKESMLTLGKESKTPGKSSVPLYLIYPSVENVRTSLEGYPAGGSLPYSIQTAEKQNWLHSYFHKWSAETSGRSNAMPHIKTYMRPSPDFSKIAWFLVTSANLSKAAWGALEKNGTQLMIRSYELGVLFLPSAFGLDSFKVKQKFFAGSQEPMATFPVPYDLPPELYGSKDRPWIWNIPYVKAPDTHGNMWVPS
CASP6: Caspase-6 (CASP6, Homo sapiens, UniProt P55212)
UniProt P55212, sequence (whole entry, looked up): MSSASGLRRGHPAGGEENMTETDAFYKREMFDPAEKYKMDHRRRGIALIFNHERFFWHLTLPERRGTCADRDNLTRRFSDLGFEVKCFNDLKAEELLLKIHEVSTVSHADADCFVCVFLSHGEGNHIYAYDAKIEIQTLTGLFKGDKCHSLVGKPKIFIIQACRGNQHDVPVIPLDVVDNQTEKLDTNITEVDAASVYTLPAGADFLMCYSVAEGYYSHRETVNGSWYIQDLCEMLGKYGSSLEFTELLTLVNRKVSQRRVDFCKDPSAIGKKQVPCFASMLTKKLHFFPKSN
glpG: Rhomboid protease GlpG (glpG, Escherichia coli, UniProt P09391)
UniProt P09391, sequence (whole entry, looked up): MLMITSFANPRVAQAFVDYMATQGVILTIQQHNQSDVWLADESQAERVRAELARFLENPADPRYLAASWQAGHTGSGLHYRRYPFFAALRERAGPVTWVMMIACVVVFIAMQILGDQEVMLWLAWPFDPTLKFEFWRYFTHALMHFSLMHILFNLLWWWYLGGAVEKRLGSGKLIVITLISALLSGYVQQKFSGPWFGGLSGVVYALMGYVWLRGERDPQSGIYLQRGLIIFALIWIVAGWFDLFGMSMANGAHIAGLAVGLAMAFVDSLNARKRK
Gria1: Glutamate receptor 1 (Gria1, Rattus norvegicus, UniProt P19490)
UniProt P19490, sequence (whole entry, looked up): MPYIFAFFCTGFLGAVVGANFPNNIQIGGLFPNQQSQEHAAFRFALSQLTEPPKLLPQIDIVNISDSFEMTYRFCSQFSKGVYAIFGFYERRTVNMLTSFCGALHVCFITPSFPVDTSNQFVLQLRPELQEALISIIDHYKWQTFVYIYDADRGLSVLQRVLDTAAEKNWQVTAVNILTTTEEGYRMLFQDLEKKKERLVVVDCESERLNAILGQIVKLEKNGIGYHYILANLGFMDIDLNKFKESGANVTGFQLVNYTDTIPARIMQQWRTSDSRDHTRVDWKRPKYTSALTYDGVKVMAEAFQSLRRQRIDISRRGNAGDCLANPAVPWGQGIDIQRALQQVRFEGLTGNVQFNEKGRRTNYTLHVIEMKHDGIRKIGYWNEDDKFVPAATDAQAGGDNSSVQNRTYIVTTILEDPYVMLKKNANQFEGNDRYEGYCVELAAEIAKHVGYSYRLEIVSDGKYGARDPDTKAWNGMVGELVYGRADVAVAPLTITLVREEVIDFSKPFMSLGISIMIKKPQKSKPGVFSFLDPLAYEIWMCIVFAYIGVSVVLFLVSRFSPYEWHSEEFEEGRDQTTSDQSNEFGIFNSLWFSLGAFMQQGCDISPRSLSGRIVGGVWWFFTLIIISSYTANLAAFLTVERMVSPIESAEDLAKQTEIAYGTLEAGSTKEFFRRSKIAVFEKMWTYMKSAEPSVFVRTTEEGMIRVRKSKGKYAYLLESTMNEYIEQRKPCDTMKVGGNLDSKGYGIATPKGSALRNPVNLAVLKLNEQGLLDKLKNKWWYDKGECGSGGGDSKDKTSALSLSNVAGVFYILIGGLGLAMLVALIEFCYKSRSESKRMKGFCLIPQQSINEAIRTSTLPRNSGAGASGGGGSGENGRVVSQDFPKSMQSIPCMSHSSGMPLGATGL
T1: DNA aptamer; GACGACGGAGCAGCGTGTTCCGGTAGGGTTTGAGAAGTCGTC
UniProt P28482, sequence (whole entry, looked up): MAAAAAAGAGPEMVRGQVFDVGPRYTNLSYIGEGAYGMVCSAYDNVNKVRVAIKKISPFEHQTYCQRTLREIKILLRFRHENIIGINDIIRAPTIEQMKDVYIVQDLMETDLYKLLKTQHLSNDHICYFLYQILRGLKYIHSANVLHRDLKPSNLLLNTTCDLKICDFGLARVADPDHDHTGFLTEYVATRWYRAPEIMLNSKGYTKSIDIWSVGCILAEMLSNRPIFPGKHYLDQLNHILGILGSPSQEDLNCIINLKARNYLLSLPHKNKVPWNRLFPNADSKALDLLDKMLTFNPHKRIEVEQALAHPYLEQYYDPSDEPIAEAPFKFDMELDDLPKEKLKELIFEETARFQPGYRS
UniProt P46089, sequence (whole entry, looked up): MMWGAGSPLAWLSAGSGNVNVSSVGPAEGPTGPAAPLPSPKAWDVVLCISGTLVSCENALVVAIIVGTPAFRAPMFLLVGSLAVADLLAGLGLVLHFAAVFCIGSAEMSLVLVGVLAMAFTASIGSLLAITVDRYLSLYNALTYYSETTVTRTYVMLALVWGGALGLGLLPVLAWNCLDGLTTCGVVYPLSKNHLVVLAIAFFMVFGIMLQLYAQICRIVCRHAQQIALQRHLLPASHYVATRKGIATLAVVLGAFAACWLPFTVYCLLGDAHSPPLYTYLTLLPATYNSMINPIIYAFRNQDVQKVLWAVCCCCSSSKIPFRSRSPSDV
UniProt Q9BUL8, sequence (whole entry, looked up): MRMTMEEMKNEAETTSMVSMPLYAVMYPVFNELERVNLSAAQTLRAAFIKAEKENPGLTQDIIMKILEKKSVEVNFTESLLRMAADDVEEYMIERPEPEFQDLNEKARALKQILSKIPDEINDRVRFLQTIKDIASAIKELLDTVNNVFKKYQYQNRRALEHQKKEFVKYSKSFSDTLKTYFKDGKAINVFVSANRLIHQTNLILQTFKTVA
UniProt P35821, sequence (whole entry, looked up): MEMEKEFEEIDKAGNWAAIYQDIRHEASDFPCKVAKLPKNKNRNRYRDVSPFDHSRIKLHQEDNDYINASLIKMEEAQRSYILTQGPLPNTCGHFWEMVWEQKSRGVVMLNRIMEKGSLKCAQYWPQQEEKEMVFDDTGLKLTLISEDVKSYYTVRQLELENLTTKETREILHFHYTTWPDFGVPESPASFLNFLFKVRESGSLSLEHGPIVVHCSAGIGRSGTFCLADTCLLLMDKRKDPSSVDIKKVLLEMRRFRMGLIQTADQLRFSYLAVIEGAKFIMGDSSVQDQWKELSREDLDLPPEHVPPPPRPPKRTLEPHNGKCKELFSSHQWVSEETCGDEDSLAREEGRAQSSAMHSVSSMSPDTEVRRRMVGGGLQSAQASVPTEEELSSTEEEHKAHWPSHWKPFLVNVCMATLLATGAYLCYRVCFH
UniProt Q9CAJ0, sequence (whole entry, looked up): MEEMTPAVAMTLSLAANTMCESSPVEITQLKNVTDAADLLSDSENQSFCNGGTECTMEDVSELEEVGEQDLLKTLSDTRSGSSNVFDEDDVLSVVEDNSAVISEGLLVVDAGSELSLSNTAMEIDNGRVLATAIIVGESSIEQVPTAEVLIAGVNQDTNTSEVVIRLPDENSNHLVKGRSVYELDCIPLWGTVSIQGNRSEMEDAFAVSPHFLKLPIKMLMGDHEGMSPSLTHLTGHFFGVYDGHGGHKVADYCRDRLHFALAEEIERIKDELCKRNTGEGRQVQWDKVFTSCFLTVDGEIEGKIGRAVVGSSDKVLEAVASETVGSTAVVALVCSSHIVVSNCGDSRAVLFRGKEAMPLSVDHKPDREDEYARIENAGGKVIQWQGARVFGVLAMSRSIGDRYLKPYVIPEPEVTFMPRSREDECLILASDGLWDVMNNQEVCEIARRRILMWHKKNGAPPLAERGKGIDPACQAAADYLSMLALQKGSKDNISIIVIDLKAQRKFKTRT
UniProt P0A7A9, sequence (whole entry, looked up): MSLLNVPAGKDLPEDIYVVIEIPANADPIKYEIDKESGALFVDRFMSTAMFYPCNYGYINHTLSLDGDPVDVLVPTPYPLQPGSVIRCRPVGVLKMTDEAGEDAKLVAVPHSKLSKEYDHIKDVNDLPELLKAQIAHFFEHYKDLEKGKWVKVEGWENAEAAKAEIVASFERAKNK
UniProt Q13946, sequence (whole entry, looked up): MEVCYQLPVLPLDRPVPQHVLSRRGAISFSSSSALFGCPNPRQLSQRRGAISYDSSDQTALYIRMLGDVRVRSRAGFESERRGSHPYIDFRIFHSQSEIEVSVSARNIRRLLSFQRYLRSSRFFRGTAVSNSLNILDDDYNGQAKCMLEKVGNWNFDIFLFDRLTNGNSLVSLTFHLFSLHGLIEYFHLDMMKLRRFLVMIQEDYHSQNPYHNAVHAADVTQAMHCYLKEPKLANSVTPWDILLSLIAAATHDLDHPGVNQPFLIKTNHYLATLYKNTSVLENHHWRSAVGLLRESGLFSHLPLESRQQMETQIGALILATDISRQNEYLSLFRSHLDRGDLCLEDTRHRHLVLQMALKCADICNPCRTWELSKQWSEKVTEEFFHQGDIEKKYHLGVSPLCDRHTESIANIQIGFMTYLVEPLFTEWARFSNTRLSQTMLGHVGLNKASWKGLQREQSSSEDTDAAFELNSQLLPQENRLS
UniProt Q86X76, sequence (whole entry, looked up): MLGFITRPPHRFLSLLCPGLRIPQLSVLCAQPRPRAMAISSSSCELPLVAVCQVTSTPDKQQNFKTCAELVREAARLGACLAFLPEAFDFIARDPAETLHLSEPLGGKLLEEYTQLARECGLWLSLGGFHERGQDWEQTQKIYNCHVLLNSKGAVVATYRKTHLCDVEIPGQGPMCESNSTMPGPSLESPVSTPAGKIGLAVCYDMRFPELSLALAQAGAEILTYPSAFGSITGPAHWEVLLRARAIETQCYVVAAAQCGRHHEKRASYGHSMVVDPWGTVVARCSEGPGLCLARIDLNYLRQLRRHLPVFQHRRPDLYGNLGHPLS

`O=[N+]([O-])c1cc(Br)cc([N+](=O)[O-])c1NS(=O)(=O)c1ccc(Br)cc1` — result for “lowest inhibitory concentration”: over 200 µM (HAB1 (Arabidopsis thaliana, UniProt Q9CAJ0); phosphatase activity, inhibitor; without PYL receptor).
`Nc1ncc2[nH]cnc2n1` gave a Kd of 72 nM (T1, DNA aptamer; ITC; NaCl 100 mM, with: MgCl2 10 mM).
With `Cc1nn(C)c(Oc2cccc(C(F)(F)F)c2)c1C=NOCc1ccc(-c2nc3cc(-c4ccccc4)ccn3c2Nc2ccc(C(=O)O)cc2)cc1` (mixture of isomers) the inhibition was 37.3% (TDP1; enzyme activity, inhibitor; 100 µM, unpurified compound).
`COC(=O)[C@@]1(C)C=C(C(=O)Nc2cccc(C(=O)Nc3ccc(Nc4nccc(-c5cccnc5)n4)c(C)c3)c2)C(=O)CC1` gave a remaining activity of 0.722 (MAPK8 (Homo sapiens, UniProt P45983); enzyme activity, inhibitor; 0.006774 µM, 18 h, unit not given, with: GSH 10 mM pre-incubation; reference: vehicle).
For `COC1CN([C@H]2CC[C@H]([C@@]3(C)Oc4c(Cl)cc(C(=O)NCc5c(SC)cc(C)[nH]c5=O)c(C)c4O3)CC2)C1`, “log2 fold change” read 4.01 (RNA-seq, measured: SMPD3 mouse homolog; mouse, HT-1376 xenograft, whole blood; dose not given; reference: vehicle).
With `CC(=O)N[C@@H](CCC(N)=O)C(=O)N[C@@H](CC(C)C)C(=O)N1CCC[C@H]1C(=O)N[C@@H](CC(=O)O)C(=O)COC(=O)c1c(C)cccc1C` the kinact/KI was 600 M⁻¹ s⁻¹ (CASP6; enzyme activity, inhibitor).
With `CC(C)Oc1cc(Cl)ccc1CNc1cc(-c2ccccc2)nc2ncnn12` the cAMP luminescence was 35600 a.u. and 48400 a.u. and 32800 a.u. and 18100 a.u. and 30000 a.u. (GPR3 (Homo sapiens, UniProt P46089); cAMP reporter; human cells; 10 nM; higher is more cAMP).
For `O=C(O)c1ccc(Nc2c(-c3ccc(CON=Cc4csc(-c5cccc(Cl)c5)n4)cc3)nc3cc(-c4ccccc4)ccn23)cc1`, the inhibition was 42.8% (TDP1; enzyme activity, inhibitor; 100 µM, unpurified compound).
For `O=C1c2sc(-c3ccc(N4CCC(F)C4)nc3F)nc2CCN1c1cccnc1` (centres unmarked), the specific binding was 0.237 nM (TAR DNA-binding protein 43, aggregated (TARDBP, Homo sapiens, UniProt Q13148); radioligand binding; control brain sarkosyl-insoluble extract; 200 nM).
`O=C(O)c1ccc(Nc2c(-c3ccccc3)nc3ccc(CON=Cc4cncn4Cc4ccccc4)cn23)cc1` gave an inhibition of 3.1% (TDP1; enzyme activity, inhibitor; 100 µM, unpurified compound).
`N[C@H]1CC[C@H](Nc2nccc(-c3cccnc3Oc3ccc(NC(=O)NC4CC4)c4ccccc34)n2)CC1` — result for “log2 LFQ intensity”: 20.6 and 20.2 and 20 and 19.5 (Programmed cell death protein 10 (Homo sapiens, UniProt Q9BUL8); kinobead competition pulldown, measured: PDCD10; HEK293/HCT116 lysate mixture; 10 µM, 1 h, 4 °C; lower = stronger competition).
`C[C@H](NCc1ccc(-c2ccccc2F)cc1)C(N)=O` gave a selectivity index of over 12.1 (MAOB (Homo sapiens, UniProt P27338); inhibitor, Amplex Red; with: benzylamine; reference: MAO-A IC50 over MAO-B IC50).
For `Cc1cc[n+](-c2nc([O-])sc2C=NOCc2ccc(-c3nc4cc(-c5ccccc5)ccn4c3Nc3ccc(C(=O)O)cc3)cc2)cc1`, the inhibition was 68.1% (TDP1; enzyme activity, inhibitor; 100 µM, unpurified compound).
The remaining binding of `Nc1ncc(-c2cc(-c3cnn(CC(F)(F)F)c3)ncc2F)nc1C(=O)NC1CNCC(F)C1` (centres unmarked) is reported as 87% (MTOR; KINOMEscan; 1 µM; reference: DMSO control).
`CC(=O)N[C@@H](CC(=O)O)C(=O)N[C@@H](C)C(=O)N[C@@H](Cc1ccc(N)cc1)C(=O)N[C@@H](CC(=O)O)C(=O)COC(=O)c1c(C)cccc1C` has a kinact/KI of 113000 M⁻¹ s⁻¹ (CASP6; enzyme activity, inhibitor).
`CC(C)(C)n1ncc2c(=O)n(Cc3cccc(F)c3)c(NCc3ccc(F)cn3)nc21` gave a selectivity ratio of over 2220 fold (PDE7A (Homo sapiens, UniProt Q13946); enzyme activity, inhibitor; reference: IC50 PDE7A1 over PDE1C).
For `Cc1ccc(C2CC(=O)N2S(=O)(=O)c2cccc(Cl)c2)cc1` (centres unmarked), IC50 read “inactive” (glpG; enzyme activity, inhibitor, gel-based chimeric protein substrate).
Under “isoTOP-ABPP competition ratio”, `CCCCCC(O)/C=C/C=O` (centres unmarked) is recorded as 1.4 (NIT1 (Homo sapiens, UniProt Q86X76); competitive isoTOP-ABPP; Ramos soluble proteome; 100 µM, 60 min, with: iodoacetamide probe; reference: DMSO over compound-treated, higher = stronger cysteine blockade).
For `O=C(O)Cc1cc2c(cc1C(=O)c1ccccc1I)OCO2`, “desensitization time constant” read 1.8 ± 0.1 ms (Gria1; whole-cell patch clamp; HEK-293T; concentration not given, with: glutamate).
`O=C1CCN1C(=O)NCc1ccccc1` — result for IC50: “inactive” (glpG; enzyme activity, inhibitor, gel-based chimeric protein substrate).
The inhibition of `O=C(O)c1ccc(Nc2c(-c3ccccc3)nc3ccc(CON=Cc4cn(-c5ccccc5)nn4)cn23)cc1` is reported as 13.8% (TDP1; enzyme activity, inhibitor; 100 µM, unpurified compound).
Under “isoTOP-ABPP competition ratio”, `CCCCCC=CC=C1C(=O)C=CC1CC=CCCCC(=O)O` (centres unmarked) is recorded as 2 (Mini-chromosome maintenance complex-binding protein (Homo sapiens, UniProt Q9BTE3); competitive isoTOP-ABPP, measured: C10orf119 cysteine peptide; Ramos soluble proteome; 100 µM, with: iodoacetamide probe; reference: DMSO over compound-treated, higher = stronger cysteine blockade).
With `Cc1ccc2c(c1Br)C(O)(CC(=O)c1ccc(C3CCCCC3)cc1)C(=O)N2` (centres unmarked) the Hill slope was -1.36 (ppa (Escherichia coli, UniProt P0A7A9); enzyme activity; counter-screen).
The inhibition of `Cc1nc(C)c(C=NOCc2ccc3nc(-c4ccccc4)c(Nc4ccc(C(=O)O)cc4)n3c2)s1` is reported as -10.9% (TDP1; enzyme activity, inhibitor; 100 µM, unpurified compound).
With `CCCCCCCCCCCCCCCC(=O)OCC(CSC[C@H](N)C(=O)N[C@@H](CO)C(=O)N[C@@H](CCCCN)C(=O)N[C@@H](CCCCN)C(=O)N[C@@H](CCCCN)C(=O)N[C@@H](CCCCN)C(=O)NCCCCCC(=O)N[C@@H](CCCCN)C(=O)N[C@@H](CC(C)C)C(=O)N[C@H](C(=O)N[C@@H](Cc1ccccc1)C(=O)N[C@@H](Cc1ccccc1)C(=O)N[C@@H](Cc1ccc2ccccc2c1)C(=O)O)C(C)C)OC(=O)CCCCCCCCCCCCCCC` (some centres unmarked) the fibril diameter was 43 nm (Amyloid-beta precursor protein, fibrillar amyloid-beta (APP, Homo sapiens, UniProt P05067); TEM; 2.0 eq, 8 h, fibril 6, with: APP 20 µM).
With `Cc1nn(C)c(N2CCOCC2)c1C=NOCc1ccc2nc(-c3ccccc3)c(Nc3ccc(C(=O)O)cc3)n2c1` (mixture of isomers) the inhibition was -10.1% (TDP1; enzyme activity, inhibitor; 100 µM, unpurified compound).
`O=C(O)Cc1cc2c(cc1C(=O)c1cccc(Cl)c1)OCO2` — result for “current amplitude after recovery”: 911 ± 29 pA (Gria1; glutamate-evoked current, whole-cell patch clamp; HEK-293T; concentration not given, glutamate alone after washout, with: glutamate).
`CC(=O)N[C@H](C(=O)N[C@@H](CCC(N)=O)C(=O)N[C@@H](CO)C(=O)N[C@@H](CC(=O)O)C(=O)COC(=O)c1c(C)cccc1C)C(C)(C)C` gave a kinact/KI of 25100 M⁻¹ s⁻¹ (CASP6; enzyme activity, inhibitor).
`CC(C)[C@@H]1NC(=O)[C@H](Cc2ccccc2)NC(=O)CSC[C@@H](C(N)=O)NC(=O)[C@H](CCC(=O)O)NC(=O)[C@H](CO)NC(=O)[C@H](Cc2c[nH]c3cccc(Cl)c23)NC(=O)[C@H](C2CCCCC2)NC(=O)[C@H](C(C)C)NC(=O)[C@H](Cc2ccc(O)cc2)NC(=O)[C@H](CC(=O)O)NC(=O)[C@H](Cc2c[nH]c3ccccc23)NC(=O)[C@H](Cc2ccc(N)nc2)NC(=O)[C@H](Cc2c[nH]c3ccc(Cl)cc23)NC(=O)[C@H](CCC(=O)O)NC1=O` has a remaining activity of 99.4% (Interleukin-1 receptor-like 2 (IL1RL2, Homo sapiens, UniProt Q9HB29); reporter gene (SEAP), inhibitor, HEK-Blue IL-36R reporter; HEK-Blue IL-36R cells; 0.015 µM, 6 h, with: IL-36β 1 ng/mL).
`Cn1c(=O)n(C2CCC(=O)NC2=O)c2ccc(C3CCN(CC(=O)Nc4cccc(CS(=O)(=O)N5CC[C@H](Nc6cccc(-c7sc(C(=O)O)c(OCC(=O)O)c7Cl)c6)CC5(C)C)c4)CC3)cc21` (some centres unmarked) gave a remaining protein of 63% and 92% (Tyrosine-protein phosphatase non-receptor type 1 (Mus musculus, UniProt P35821); degrader, Western blot; B16-F10; 1 µM, with: bortezomib 10 µM pretreatment).
Under “deactivation time constant”, `O=C(O)Cc1cc2c(cc1C(=O)c1ccccc1)OCO2` is recorded as 2.6 ± 0.1 ms (Gria1; glutamate-evoked current, whole-cell patch clamp; HEK-293T; concentration not given, weighted tau, 1 ms pulse, with: glutamate).
With `O=C(O)c1ccc(Nc2c(-c3ccccc3)nc3ccc(CON=Cc4cccc5cccnc45)cn23)cc1` the inhibition was 94.9% (TDP1; enzyme activity, inhibitor; 100 µM, unpurified compound).
The kinact/KI of `CC(=O)N[C@@H](Cc1c[nH]c2ccccc12)C(=O)N[C@@H](CCCNC(=N)N)C(=O)N[C@@H](CO)C(=O)N[C@@H](CC(=O)O)C(=O)COC(=O)c1c(C)cccc1C` is reported as 200 M⁻¹ s⁻¹ (CASP6; enzyme activity, inhibitor).
The Hill slope of `Cc1ccc2c(c1)C(O)(CC(=O)c1ccc3c(c1)OCCO3)C(=O)N2` (centres unmarked) is reported as -4.16 (Uncharacterized protein (Trypanosoma brucei brucei, UniProt Q386Q8); inhibitor, coupled colorimetric; Trypanosoma brucei).
Under “isoTOP-ABPP competition ratio”, `CCCCCCCCCCCCC/C=C/C=O` is recorded as 1 (Histone H3.2 (H3C15, Homo sapiens, UniProt Q71DI3); competitive isoTOP-ABPP, measured: HIST2H3C cysteine peptide; proteome, soluble, MDA-MB-231; 100 µM, with: iodoacetamide probe; reference: DMSO over compound-treated, higher = stronger cysteine blockade).
`Cc1ncsc1-c1ccc(C(C)NC(=O)C2CC(O)CN2C(=O)C(NC(=O)CCCCCCCCCCN2CCCC(Nc3ncc(Cl)c(Nc4ccccc4S(=O)(=O)C(C)C)n3)C2)C(C)(C)C)cc1` (centres unmarked): “log2 fold change” -1.48 (22Rv1; RNA-seq, measured: RNF43 mRNA; concentration not given; reference: DMSO).
For `C#CCOC(=O)[C@@]1(C)C=C(C(=O)OC(C)(C)C)C(=O)CC1`, “normalized kinase activity” read 1.06 and 1.09 and 1.31 (MAPK1 (Homo sapiens, UniProt P28482); enzyme activity, D-SENSOR; 0.06097 µM, single replicate).
`COC(=O)Cc1cc2c(cc1C(=O)c1ccccc1I)OCO2` has a current amplitude of 612 ± 59 pA (Gria1; glutamate-evoked current, whole-cell patch clamp; HEK-293T; concentration not given, pH 7.4, holding potential -60 mV, with: 10 mM glutamate).

Excerpt of the above:
For `O=C1c2sc(-c3ccc(N4CCC(F)C4)nc3F)nc2CCN1c1cccnc1` (centres unmarked), the specific binding was 0.237 nM (TAR DNA-binding protein 43, aggregated (TARDBP, Homo sapiens, UniProt Q13148); radioligand binding; control brain sarkosyl-insoluble extract; 200 nM).
`COC(=O)[C@@]1(C)C=C(C(=O)Nc2cccc(C(=O)Nc3ccc(Nc4nccc(-c5cccnc5)n4)c(C)c3)c2)C(=O)CC1` gave a remaining activity of 0.722 (MAPK8 (Homo sapiens, UniProt P45983); enzyme activity, inhibitor; 0.006774 µM, 18 h, unit not given, with: GSH 10 mM pre-incubation; reference: vehicle).
`CC(=O)N[C@@H](CC(=O)O)C(=O)N[C@@H](C)C(=O)N[C@@H](Cc1ccc(N)cc1)C(=O)N[C@@H](CC(=O)O)C(=O)COC(=O)c1c(C)cccc1C` has a kinact/KI of 113000 M⁻¹ s⁻¹ (CASP6; enzyme activity, inhibitor).
For `COC1CN([C@H]2CC[C@H]([C@@]3(C)Oc4c(Cl)cc(C(=O)NCc5c(SC)cc(C)[nH]c5=O)c(C)c4O3)CC2)C1`, “log2 fold change” read 4.01 (RNA-seq, measured: SMPD3 mouse homolog; mouse, HT-1376 xenograft, whole blood; dose not given; reference: vehicle).
Under “isoTOP-ABPP competition ratio”, `CCCCCC(O)/C=C/C=O` (centres unmarked) is recorded as 1.4 (NIT1 (Homo sapiens, UniProt Q86X76); competitive isoTOP-ABPP; Ramos soluble proteome; 100 µM, 60 min, with: iodoacetamide probe; reference: DMSO over compound-treated, higher = stronger cysteine blockade).
